# Assay results pooled from the literature.
# Each line is one published result; not all experiments were run side by side. ± marks the error that the study gave.
Compound,tested on,assay,test system,conditions,how to read,endpoint,result
CC(=O)N[C@@H](CC(N)=O)C(=O)N[C@@H](CC(N)=O)C(=O)N[C@@H](CC(C)C)C(=O)N[C@H]1CSSC[C@@H](C(=O)N[C@H](C(N)=O)[C@@H](C)O)NC(=O)[C@H](CCCNC(=N)N)NC(=O)[C@H](Cc2c[nH]cn2)NC(=O)[C@H](C)NC(=O)CNC(=O)[C@H](Cc2c[nH]c3ccccc23)NC(=O)[C@H](CC(=O)O)NC(=O)[C@H](CCC(N)=O)NC(=O)[C@H](Cc2c[nH]c3ccccc23)NC(=O)[C@H](C(C)C)NC1=O,,"isocratic RP-HPLC, C18","32% acetonitrile, phosphate pH 7.4, 1% TFA",25 °C,,retention factor,0.396 ± 0.015
O=C(O)CCC(=O)O.[2H]C([2H])([2H])Oc1cc(C)c2[nH]ccc2c1CN1CC[C@@H](C2CC2)C[C@H]1c1ccc(C(=O)O)cc1,,"LC-MS/MS, median","human, plasma","50 mg, single dose, fasting",,Tmax,4 h
C=CCN1CC(=O)N2[C@@H](Cc3ccc(O)cc3F)C(=O)N(Cc3cccc(N4CC(N5CCN(CC)CC5)C4)n3)C[C@@H]2N1C(=O)NCc1ccccc1,,,advanced solid tumour patients,"oral, 45 mg twice daily, grade ≥3, dose-escalation",,treatment-related AST increased,0%
O=C(N[C@H](Cc1c[nH]c2ccccc12)C(=O)Nc1ccncc1)c1ccc(N2CCN(c3ccc(F)c(F)c3)CC2)cc1F,,,"Swiss Webster mouse, female, heart","oral, 50 mg/kg, 8 h, 20% HPβCD vehicle",,concentration,310 nM
CO[C@@H]1[C@H](O)[C@@H](CO)O[C@H]1n1c([N+](=O)[O-])nc2c(=O)[nH]c(N)nc21,,"depurination, RP-HPLC",citrate-phosphate buffer 0.5 mM,"355 min, pH 2, 37 °C",,nucleoside remaining fraction,0.663
O=C(NCCCNc1nc(Nc2cccc(NC(=O)N3CCCC3)c2)ncc1C1CC1)C1CCC1,,PAMPA,PBS,"5 h, pH 7.4",,effective permeability,0.597 ×10⁻⁶ cm/s
CCCCC[C@H]1CC[C@H](c2ccc(OCC)c(F)c2F)CC1,,,"rat, fetus","1000 ng/mL in perfusate, middle dose, mixture of 21 LCMs",,fetal accumulation,0.363 ± 0.616 ng/g
CC[C@H](C)CCCCC(=O)N[C@@H](CCN)C(=O)N[C@H](C(=O)N[C@@H](CCN)C(=O)N[C@H]1CCNC(=O)[C@H]([C@@H](C)O)NC(=O)[C@H](CCN)NC(=O)[C@H](CCN)NC(=O)[C@H](CC(C)C)NC(=O)[C@@H](Cc2ccccc2)NC(=O)[C@H](CCN)NC1=O)[C@@H](C)O,,,"human, mild renal insufficiency, urine","intravenous, 0.75 mg/kg, 0-24 h, arithmetic mean",,urinary excretion,1.53%
CC(C)C(=O)O[C@H]1[C@H](C)OC(=O)[C@@H]1Cc1ccccc1,,,cabbage,"concentration not given, foliar application",,share of total radioactive residue,≤ 13 % TRR
N#CCNC(=O)c1ccc(-c2ccnc(Nc3ccc(N4CCOCC4=O)cc3)n2)cc1,,,"healthy volunteers, plasma","dose not given, added: rifampin single-dose",baseline: with rifampin over alone,Cmax geometric mean ratio,106%
CCN1CCN(Cc2ccc(NC(=O)c3ccc(C)c(NC(=O)c4cncc(-c5cccs5)c4)c3)cc2C(F)(F)F)CC1,,,"C57BL/6 mice, epithelial lining fluid","intraperitoneal, 20 mg/kg",,mean residence time,3.05 h
COc1c(O)cc2c(c1O)C(=O)c1c(cc(C)c(O)c1OC)C2=O,HK-2 co-cultured with HepaRG,MTT,,"16.67 µM, 48 h",baseline: untreated control,viability,88.8 ± 4.99%
C[C@@H]1COCCN1c1cc(C2([S@](C)(=N)=O)CC2)nc(-c2cc[nH]c3nccc2-3)n1,,,Japanese advanced solid tumour patients,"oral, 160 mg twice daily, CTCAE grade ≥3",,Rash incidence,0%
CC(C)NCCCC[C@@H]1NC(=O)[C@H](Cc2ccc(O)cc2)NC(=O)[C@H](Cc2ccccc2)NC(=O)CC[C@H](C(=O)N[C@@H](CCCCNC(C)C)C(=O)N[C@@H](CCCCNC(=O)[C@H](CCC(=O)O)NC(=O)[C@H](CCC(=O)O)NC(=O)[C@H](CCC(=O)O)NC(=O)CN2CCN(CC(=O)O)CCN(CC(=O)O)CCN(CC(=O)O)CC2)C(N)=O)NC(=O)CNC(=O)[C@H](Cc2ccc3ccccc3c2)NC(=O)[C@@H](CCCNC(=N)N)NC1=O [gallium-68 labelled],,,"mouse with Daudi xenograft, blood","intravenous, 1 h",,tissue uptake,0.27 %ID/g
Cl.[2H]C([2H])([2H])CC(=O)c1cnc(NC(=O)C2CC2)cc1Nc1cccc(-c2ncn(C([2H])([2H])[2H])n2)c1OC,,geometric mean,human,"oral, 5 mg single dose, fasted, liquid",,Vz/F,186 L
O=C1CCc2ccc(OCCCCN3CCN(c4cccc(Cl)c4Cl)CC3)cc2N1,,item: Constipation,"patients, CYP2D6 intermediate metabolizers","dose not given, long-acting oral or depot",,adverse event incidence,10%
CN(CCCNC(=O)c1cccc(C(=O)O)c1)CCCNC(=O)c1cc(NC(=O)c2cc(NC(=O)c3cc(NC(=O)c4nc(NC(=O)C[C@H](CNC(=O)c5cc(NC(=O)c6cc(NC(=O)c7cc(NC(=O)c8nccn8C)cn7C)cn6C)cn5C)NC(=O)c5ccccc5)cn4C)cn3C)cn2C)cn1C,,dynamic light scattering,0.1% DMSO in PBS,25 °C,,critical aggregation concentration,1 µM
Cc1cc(-c2nnc(N)nc2-c2ccc(F)cc2)cc(Cl)n1,,,"human patients, plasma","oral, 150 mg capsule once daily, multiple doses, arithmetic mean",,terminal half-life,6.21 h
O=C(O)c1cc(O)c2c(c1)C(=O)c1cccc(O)c1C2=O,HK-2 co-cultured with HepaRG,MTT,,"16.67 µM, 48 h",baseline: untreated control,viability,61.5 ± 6.82%
O=C(Nc1nc2cccc(-c3ccc(CN4CCS(=O)(=O)CC4)cc3)n2n1)C1CC1,,item: epigastric discomfort,human rheumatoid arthritis patients,"oral, 30 mg once daily, 4 weeks, regardless of relatedness",,treatment-emergent adverse events,0%
